# Measurements of several laboratories.
# Compare with care: the assays were run in different laboratories. Numbers after ± are the reported error.
# USP49 ZnF-UBD domain: Ubiquitin carboxyl-terminal hydrolase 49, ZnF-UBD domain (USP49, Homo sapiens, UniProt Q70CQ1)
# Chain of UniProt Q70CQ1 (whole entry, looked up): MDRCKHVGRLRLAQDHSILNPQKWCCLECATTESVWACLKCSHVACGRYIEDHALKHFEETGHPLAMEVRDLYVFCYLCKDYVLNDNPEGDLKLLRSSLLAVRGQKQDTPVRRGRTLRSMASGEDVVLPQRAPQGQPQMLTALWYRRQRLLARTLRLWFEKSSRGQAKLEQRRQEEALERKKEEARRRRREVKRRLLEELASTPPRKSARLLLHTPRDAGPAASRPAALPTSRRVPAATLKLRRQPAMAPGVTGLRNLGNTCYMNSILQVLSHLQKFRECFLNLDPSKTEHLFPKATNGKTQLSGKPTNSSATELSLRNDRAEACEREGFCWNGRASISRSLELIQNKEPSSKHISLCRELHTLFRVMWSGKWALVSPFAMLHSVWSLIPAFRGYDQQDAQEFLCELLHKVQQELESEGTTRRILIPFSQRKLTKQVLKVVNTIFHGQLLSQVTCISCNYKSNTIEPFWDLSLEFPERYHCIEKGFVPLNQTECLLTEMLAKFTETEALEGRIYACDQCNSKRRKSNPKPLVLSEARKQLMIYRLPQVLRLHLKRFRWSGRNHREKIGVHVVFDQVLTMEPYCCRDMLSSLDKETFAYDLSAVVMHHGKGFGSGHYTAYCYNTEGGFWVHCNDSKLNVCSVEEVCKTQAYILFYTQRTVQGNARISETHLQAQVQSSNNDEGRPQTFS
# Alpha-carbonic anhydrase: Alpha-carbonic anhydrase (Enterococcus faecium, UniProt Q3XYE8)
# ZBTB11/CRBN: ZBTB11/CRBN (Homo sapiens, UniProt O95625+Q96SW2)
# Chain of UniProt Q96SW2 (whole entry, looked up): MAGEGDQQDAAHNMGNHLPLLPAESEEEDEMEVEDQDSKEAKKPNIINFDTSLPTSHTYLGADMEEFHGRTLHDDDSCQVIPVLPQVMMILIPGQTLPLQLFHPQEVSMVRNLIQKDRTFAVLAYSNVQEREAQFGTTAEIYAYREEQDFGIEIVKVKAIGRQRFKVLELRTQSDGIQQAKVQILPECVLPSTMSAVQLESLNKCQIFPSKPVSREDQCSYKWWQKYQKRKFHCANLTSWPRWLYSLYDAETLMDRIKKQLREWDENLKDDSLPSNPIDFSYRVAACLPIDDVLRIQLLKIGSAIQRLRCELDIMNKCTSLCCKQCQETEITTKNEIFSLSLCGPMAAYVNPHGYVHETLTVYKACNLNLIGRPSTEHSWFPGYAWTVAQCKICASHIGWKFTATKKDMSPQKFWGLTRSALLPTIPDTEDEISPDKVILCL
# Chain of UniProt O95625 (whole entry, looked up): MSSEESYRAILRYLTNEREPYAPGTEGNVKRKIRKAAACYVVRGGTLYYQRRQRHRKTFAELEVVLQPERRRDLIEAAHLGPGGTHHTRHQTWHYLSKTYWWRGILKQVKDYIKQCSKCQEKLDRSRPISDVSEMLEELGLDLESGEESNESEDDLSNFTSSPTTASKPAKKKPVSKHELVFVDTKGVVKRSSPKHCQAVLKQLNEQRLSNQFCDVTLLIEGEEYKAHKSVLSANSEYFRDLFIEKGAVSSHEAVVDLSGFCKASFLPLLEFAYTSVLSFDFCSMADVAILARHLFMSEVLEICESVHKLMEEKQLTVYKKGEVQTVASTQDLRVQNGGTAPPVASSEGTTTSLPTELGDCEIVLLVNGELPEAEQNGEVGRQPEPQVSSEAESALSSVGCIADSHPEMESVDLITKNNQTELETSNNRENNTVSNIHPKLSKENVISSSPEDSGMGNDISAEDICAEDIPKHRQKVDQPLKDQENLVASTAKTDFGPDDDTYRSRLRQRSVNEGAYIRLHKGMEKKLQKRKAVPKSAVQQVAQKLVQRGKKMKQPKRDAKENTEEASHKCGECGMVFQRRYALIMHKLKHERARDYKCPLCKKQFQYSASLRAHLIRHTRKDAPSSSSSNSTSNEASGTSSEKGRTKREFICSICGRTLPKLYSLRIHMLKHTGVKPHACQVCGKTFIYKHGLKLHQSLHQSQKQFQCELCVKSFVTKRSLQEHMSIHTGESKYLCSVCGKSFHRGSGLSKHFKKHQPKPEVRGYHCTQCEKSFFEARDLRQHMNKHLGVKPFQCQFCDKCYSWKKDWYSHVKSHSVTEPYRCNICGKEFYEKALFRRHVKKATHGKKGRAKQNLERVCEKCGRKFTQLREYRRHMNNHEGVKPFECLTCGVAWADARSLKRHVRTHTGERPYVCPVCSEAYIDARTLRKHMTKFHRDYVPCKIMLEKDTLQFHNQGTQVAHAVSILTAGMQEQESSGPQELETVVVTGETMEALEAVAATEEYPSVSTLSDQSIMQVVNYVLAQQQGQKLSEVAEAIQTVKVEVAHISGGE
# USP20 ZnF-UBD domain: Ubiquitin carboxyl-terminal hydrolase 20, ZnF-UBD domain (USP20, Homo sapiens, UniProt Q9Y2K6)
# Chain of UniProt Q9Y2K6 (whole entry, looked up): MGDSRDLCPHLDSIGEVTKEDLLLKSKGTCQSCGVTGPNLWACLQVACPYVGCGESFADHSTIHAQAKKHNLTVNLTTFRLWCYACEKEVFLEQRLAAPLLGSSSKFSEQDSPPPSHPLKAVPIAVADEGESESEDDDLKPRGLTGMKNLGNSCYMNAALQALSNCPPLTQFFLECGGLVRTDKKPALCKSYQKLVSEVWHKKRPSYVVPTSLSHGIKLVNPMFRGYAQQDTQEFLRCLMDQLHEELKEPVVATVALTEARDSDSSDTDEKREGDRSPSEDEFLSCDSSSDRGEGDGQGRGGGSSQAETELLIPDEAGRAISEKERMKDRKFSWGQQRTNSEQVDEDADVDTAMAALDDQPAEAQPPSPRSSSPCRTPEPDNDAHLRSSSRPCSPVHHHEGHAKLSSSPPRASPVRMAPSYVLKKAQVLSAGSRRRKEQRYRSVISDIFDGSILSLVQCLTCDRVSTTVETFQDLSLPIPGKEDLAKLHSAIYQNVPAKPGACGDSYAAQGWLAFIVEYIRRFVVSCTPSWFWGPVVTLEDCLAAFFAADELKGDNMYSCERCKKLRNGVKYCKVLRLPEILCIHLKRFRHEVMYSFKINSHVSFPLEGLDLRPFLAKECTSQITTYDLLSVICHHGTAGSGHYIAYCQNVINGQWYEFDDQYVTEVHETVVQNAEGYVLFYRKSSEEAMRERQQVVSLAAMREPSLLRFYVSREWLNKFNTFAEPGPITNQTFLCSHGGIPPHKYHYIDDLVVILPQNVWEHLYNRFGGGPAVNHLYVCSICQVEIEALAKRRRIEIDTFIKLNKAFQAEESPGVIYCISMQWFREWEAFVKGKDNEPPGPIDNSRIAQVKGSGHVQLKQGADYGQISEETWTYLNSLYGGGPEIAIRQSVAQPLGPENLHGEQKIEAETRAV
# Chain of UniProt Q9Y616 (whole entry, looked up): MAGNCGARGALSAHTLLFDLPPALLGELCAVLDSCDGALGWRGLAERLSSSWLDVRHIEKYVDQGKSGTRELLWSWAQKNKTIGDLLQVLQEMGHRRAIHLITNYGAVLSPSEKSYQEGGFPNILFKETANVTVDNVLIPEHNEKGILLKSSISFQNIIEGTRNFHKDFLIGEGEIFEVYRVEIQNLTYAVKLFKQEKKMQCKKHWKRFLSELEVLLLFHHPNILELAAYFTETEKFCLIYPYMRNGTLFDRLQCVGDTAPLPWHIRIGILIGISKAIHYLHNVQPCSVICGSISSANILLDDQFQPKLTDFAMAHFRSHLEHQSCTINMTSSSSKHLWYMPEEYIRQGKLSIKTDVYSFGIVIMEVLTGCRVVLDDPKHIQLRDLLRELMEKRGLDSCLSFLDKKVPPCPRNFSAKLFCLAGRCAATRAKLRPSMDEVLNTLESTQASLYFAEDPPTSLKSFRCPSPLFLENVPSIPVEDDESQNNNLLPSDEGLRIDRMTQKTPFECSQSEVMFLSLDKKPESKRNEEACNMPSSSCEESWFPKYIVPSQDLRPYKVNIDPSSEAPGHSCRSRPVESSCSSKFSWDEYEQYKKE
SMILES,tested on,test,system,conditions,how to read,endpoint,value
CSc1nc(C)c(CCC(=O)O)c(=O)[nH]1,USP49 ZnF-UBD domain,,,,,Kd,> 1000 µM
CN1CCN(c2ccc(Nc3ncc4cc(C#N)c(=O)n(C5CCCC5)c4n3)cc2)CC1,"SYK (Homo sapiens, UniProt P43405)",,,,,IC50,> 10 µM
CC(C)[C@H](NC(=O)[C@H](Cc1ccc(O)cc1)NC(=O)[C@H](Cc1ccc(O)cc1)NC(=O)[C@@H]1CCCN1C(=O)[C@H](CCC(=O)O)NC(=O)[C@H](CCC(=O)O)NC(=O)[C@H](Cc1c[nH]c2ccccc12)NC(=O)[C@@H]1CCCN1C(=O)[C@@H](NC(=O)[C@H](CCC(N)=O)NC(=O)c1ccc2c(c1)C(=O)OC21c2ccc(O)cc2Oc2cc(O)ccc21)C(C)C)C(=O)N[C@H](C(=O)N[C@@H](CCCCN)C(=O)N[C@@H](CCCCN)C(=O)N[C@@H](CO)C(=O)N[C@@H](CO)C(=O)NCC(=O)NCC(N)=O)C(C)C,,,"human, plasma","intravenous infusion, 400 mg, 2 h",,plasma concentration,193 ng/mL
CC1(CC(=O)Nc2nnc(S(N)(=O)=O)s2)CCCCC1,Alpha-carbonic anhydrase,"CO2 hydration, inhibitor, stopped-flow kinetics",,,,Ki,0.055 µM
CC(C)(NCCCc1ccc(C(F)(F)F)c(Cl)c1)c1cccc(NC2=CC(=O)N(C3CCC(=O)NC3=O)C2=O)c1 (stereo not shown),ZBTB11/CRBN,degrader,human cells,,,DC50,0.42 µM
CC[C@@H]1[C@H](F)C(=O)N[C@@H]1COc1nccc2cc(C(N)=O)c(OC)cc12,"IRAK3 (Homo sapiens, UniProt Q9Y616)","ATP-site binding, ActivX kinase profiling",THP-1 cell lysate,protein kinase domain probe peptide,,IC50,0.33 µM
Cc1ccccc1CCC(=O)Nc1nnc(S(N)(=O)=O)s1,Alpha-carbonic anhydrase,"CO2 hydration, inhibitor, stopped-flow kinetics",,,,Ki,0.0164 µM
CCC(C)(NCCc1cccc(Cl)c1)c1cccc(NC2=CC(=O)N(C3CCC(=O)NC3=O)C2=O)c1 (stereo not shown),ZBTB11/CRBN,"degrader, HiBiT luminescence, refers to: endogenous HiBiT-tagged protein",,,,DC50,17 µM
N[C@@H](CCSC[C@H](N)C(=O)O)C(=O)O,,"binding, equilibrium dialysis LC-MS",,"5 µM, thermostabilized A2AR-BRIL construct","relative to: no-protein control, direction not given",z-scored log2 fold change,0.413
Cc1cc(NC(=O)CCC(=O)O)nn1C,USP20 ZnF-UBD domain,,,,,Kd,777 µM
NCCCC[C@H](N)C(=O)O,,"binding, equilibrium dialysis LC-MS",,"5 µM, thermostabilized A2AR-BRIL construct","relative to: no-protein control, direction not given",z-scored log2 fold change,0.359
NCCC(=O)Nc1nnc(S(N)(=O)=O)s1,Alpha-carbonic anhydrase,"CO2 hydration, inhibitor, stopped-flow kinetics",,,,Ki,0.0567 µM
Cc1sc2ncn(CC(=O)O)c(=O)c2c1C,USP20 ZnF-UBD domain,,,,,Kd,674 µM
CC(C)(C(=O)Nc1nnc(S(N)(=O)=O)s1)C1CCCCC1,Alpha-carbonic anhydrase,"CO2 hydration, inhibitor, stopped-flow kinetics",,,,Ki,0.0271 µM
N=C(N)NCCC[C@@H](NC(=O)CCOCCOCCNC(=O)[C@H](CCCCNC(=O)CC[C@H](NC(=O)c1ccc(NCc2cnc3nc(N)[nH]c(=O)c3n2)cc1)C(=O)O)NC(=O)CO/N=C/[C@H](F)[C@@H](O)[C@H](O)[C@H](O)CO)C(=O)NCC(=O)N[C@H](CC(=O)O)C(N)=O [fluorine-18 labelled],,,"nude mouse, female, blood","intravenous, 1 µg, 2.5 h",,tissue uptake,0.51 ± 0.15 %ID/g
COCCOCCOCCOc1ccc(C#Cc2cc(CN3CCN(Cc4cc(C#Cc5ccc(OCCOCCOCCOC)cc5)cc(C(=O)O)n4)CCN(Cc4cc(SC[C@H](N)C(=O)NC[C@H]5CC[C@H](C(=O)N[C@@H](Cc6ccc7ccccc7c6)C(=O)NCCCC[C@H](NC(=O)N[C@@H](CCC(=O)O)C(=O)O)C(=O)O)CC5)cc(C(=O)O)n4)CC3)nc(C(=O)O)c2)cc1 [yttrium-86 labelled],,,"mouse, kidneys","intravenous, 6 h",,tissue uptake,28.4 ± 0.03 %ID/g
NC(=O)c1cc(-n2c(CCC(=O)O)nc3ccccc32)cs1,USP20 ZnF-UBD domain,,,,,Kd,464 µM
NS(=O)(=O)c1nnc(NC(=O)C(F)C2CCCCC2)s1 (stereo not shown),Alpha-carbonic anhydrase,"CO2 hydration, inhibitor, stopped-flow kinetics",,,,Ki,0.0114 µM
CCC(C)(NCCc1ccc(C(F)(F)F)cc1C(F)(F)F)c1cccc(NC2=CC(=O)N(C3CCC(=O)NC3=O)C2=O)c1 (stereo not shown),ZBTB11/CRBN,"degrader, HiBiT luminescence, refers to: endogenous HiBiT-tagged protein",,,,DC50,9.7 ± 4.8 µM
Nc1nc(CC(=O)O)cs1,USP49 ZnF-UBD domain,,,,,Kd,> 1000 µM
CCC(C)(NCCc1ccc(Cl)c(C(F)(F)F)c1)c1cccc(NC2=CC(=O)N(C3CCC(=O)NC3=O)C2=O)c1 (stereo not shown),ZBTB11/CRBN,degrader,human cells,,,DC50,0.18 ± 0.14 µM
CC(C)C[C@H](NC(=O)C[C@H](O)[C@H](CC(C)C)NC(=O)[C@H](Cc1c[nH]cn1)NC(=O)CNC(=O)[C@@H](NC(=O)[C@H](C)NC(=O)[C@H](Cc1c[nH]c2ccccc12)NC(=O)[C@H](CCC(N)=O)NC(=O)[C@@H](Cc1ccccc1)NC(=O)COCCOCCNC(=O)CCC(C(=O)O)N1CCN(CC(=O)O)CCN(CC(=O)O)CCN(CC(=O)O)CC1)C(C)C)C(N)=O (stereo partly shown) [lutetium-177 labelled],,,"female BALB/c nu/nu mice, muscle","intravenous, 50 pmol, 24 h",,tissue uptake,0.04 ± 0.04 %ID/g

# Excerpt of the above:
SMILES,tested on,test,system,conditions,how to read,endpoint,value
NCCC(=O)Nc1nnc(S(N)(=O)=O)s1,Alpha-carbonic anhydrase,"CO2 hydration, inhibitor, stopped-flow kinetics",,,,Ki,0.0567 µM
Cc1sc2ncn(CC(=O)O)c(=O)c2c1C,USP20 ZnF-UBD domain,,,,,Kd,674 µM
CC(C)(C(=O)Nc1nnc(S(N)(=O)=O)s1)C1CCCCC1,Alpha-carbonic anhydrase,"CO2 hydration, inhibitor, stopped-flow kinetics",,,,Ki,0.0271 µM
